Measurements gathered from unrelated publications.
Numbered parts are unrelated; each lists some results of a single study.

Set 1 — read-out: enzyme activity; action: inhibitor; concentration: 20 µM
Target: Replicase polyprotein 1ab, main protease (rep, Severe acute respiratory syndrome coronavirus 2, UniProt P0DTD1)
Structure (SMILES)	inhibition [%]
C=CC(=O)c1ccc2ccccc2c1	-11.8
O=C(NC(=S)N1CCCc2ccccc21)c1ccccc1	68.6
CC[N+](C)(CC)CCC[n+]1c(-c2ccccc2)c2cc(N)ccc2c2ccc(N)cc21	56
C=CCN1CCc2cc(O)c(O)cc2C(c2ccccc2)C1 (stereo not drawn)	3.95

Set 2 — Substance: (-)-epicatechin gallate; action: inhibitor; concentration: 20 µM
rep nsp13 helicase: Replicase polyprotein 1ab, nsp13 helicase (rep, Severe acute respiratory syndrome coronavirus 2, UniProt P0DTD1)
target	test	setting	inhibition
rep nsp13 helicase	helicase activity, refers to: nsp13 helicase	with DTT	62.8%
rep nsp13 helicase	helicase activity, refers to: nsp13 helicase		85.3%
Replicase polyprotein 1ab, nsp12 with nsp7/nsp8 (rep, Severe acute respiratory syndrome coronavirus 2, UniProt P0DTD1)	RdRp activity		79.1%
rep nsp13 helicase	ATPase activity, refers to: nsp13 helicase		81.9%

Set 3 — method: RNA Bind-n-Seq; form: RNA; sample: in vitro; concentration: 20 nM; notes: 6-mer, flanks averaged, single round; together with: 150 mM KCl; relative to: input library; reading: higher = stronger binding
Target: TAR DNA-binding protein 43, full length, His tag (TARDBP, Homo sapiens, UniProt Q13148, residues 1-414)
Oligonucleotide	6-mer enrichment (R)
AUUUCG	0.585
CGUUAG	0.729
CGUCAC	0.669
UUUGGG	1.64
GCUCGC	0.781
AGUCCU	0.595
AGACAG	0.953
UGUGUG	2.26

Set 4 — cell line: HEK-293T; read-out: pseudovirus infection; method: FDA-approved drug library screen; organism: VSV pseudotyped with SARS-CoV-2 spike; concentration: 10 µM; time: 16 h; relative to: vehicle-treated
SMILES	GFP-positive cells [%]
O=C(Nc1ccc([N+](=O)[O-])cc1Cl)c1cc(Cl)ccc1O	16
CCOc1nc2cccc(C(=O)O)c2n1Cc1ccc(-c2ccccc2-c2nc(=O)o[nH]2)cc1	119
[H]/N=C(/N)N[C@H]1[C@H](O)[C@@H](O)[C@H](O[C@@H]2O[C@@H](C)[C@](O)(C=O)[C@H]2O[C@@H]2O[C@@H](CO)[C@H](O)[C@@H](O)[C@@H]2NC)[C@@H](N/C(N)=N\[H])[C@@H]1O	110
CC(C)Cc1ccc(C(C)C(=O)O)cc1 (stereo not drawn)	94
COC(=O)c1ccccc1O	100

For quick reference, copied from above (set 3):
Oligonucleotide	6-mer enrichment (R)
AGUCCU	0.595
GCUCGC	0.781
UUUGGG	1.64
